Published values of several laboratories.
Each line is one published result; not all experiments were run side by side.
Organism: Acinetobacter baumannii

CCCCCCCC(=O)N[C@@H](CCN)C(=O)N[C@H](C(=O)N[C@@H](CCN)C(=O)N[C@H]1CCNC(=O)[C@H]([C@@H](C)O)NC(=O)[C@H](CCN)NC(=O)[C@H](CCN)NC(=O)[C@H](CC(C)C)NC(=O)[C@@H](C)NC(=O)[C@H](CCN)NC1=O)[C@@H](C)O  MIC (CLSI broth microdilution; 5075, CAMHB; 20 h, 37 °C): 256 µg/mL
CCCCCCCC(=O)N[C@@H](CCN)C(=O)N[C@H](C(=O)N[C@@H](CCN)C(=O)N[C@H]1CCNC(=O)[C@H]([C@@H](C)O)NC(=O)[C@H](CCN)NC(=O)[C@H](CCN)NC(=O)[C@H](CCCCCC)NC(=O)[C@@H](Cc2ccccc2)NC(=O)[C@H](CCN)NC1=O)[C@@H](C)O  MIC (broth microdilution; ATCC 19606, colistin-susceptible): 0.125 to 0.25 µg/mL
CCCCCCCC(=O)N[C@@H](CCN)C(=O)N[C@@H](C)C(=O)N[C@@H](CCN)C(=O)N[C@H]1CCNC(=O)[C@H]([C@@H](C)O)NC(=O)[C@H](CCN)NC(=O)[C@H](CCN)NC(=O)[C@H](CC(C)C)NC(=O)[C@@H](Cc2ccccc2)NC(=O)[C@H](CCN)NC1=O  MIC (CLSI broth microdilution; 248-01-C.248, CAMHB; 20 h, 37 °C): > 512 µg/mL
CCn1c(-c2ccc(Br)cc2)c(-c2ccc(Br)cc2)n(CC)c1=[Se]  MIC (broth microdilution; carbapenem-resistant; 24 h): > 40 µM
CN[C@@H]1[C@H](O)[C@H](NC)[C@H]2O[C@]3(O)[C@H](O[C@@H]2[C@H]1O)O[C@H](C)C[C@H]3NC(=O)Cc1cscn1  MIC (microbial growth, broth dilution; ATCC19606): > 200 µg/mL
CC[C@H](C)[C@H](NC(=O)[C@H](CCCNC(=N)N)NC(=O)[C@H](Cc1c[nH]c2ccccc12)NC(=O)[C@H](Cc1c[nH]c2ccccc12)NC(=O)[C@H](CCCNC(=N)N)NC(=O)[C@@H](N)CCCNC(=N)N)C(=O)N[C@@H](Cc1c[nH]c2ccccc12)C(N)=O  MIC (without added MgSO4): 8 µg/mL
CC[C@H](C)[C@H](NC(=O)[C@@H](CCCNC(=N)N)NC(=O)[C@H](CCCNC(=N)N)NC(=O)[C@@H]1CCCN1C(=O)[C@@H]1CCCN1C(=O)[C@H](Cc1c[nH]c2ccccc12)NC(=O)[C@@H]1CCCN1C(=O)[C@H](CCCNC(=N)N)NC(=O)[C@@H]1CCCN1C(=O)[C@H](CC(C)C)NC(=O)[C@H](Cc1ccc(O)cc1)NC(=O)[C@@H]1CCCN1C(=O)[C@@H]1CCCN1C(=O)[C@H](CCCCN)NC(=O)[C@H](CC(=O)O)NC(=O)[C@@H](N)C(C)C)C(=O)N[C@@H](Cc1ccc(O)cc1)C(=O)N[C@@H](CC(N)=O)C(=O)N[C@H](CCCNC(=N)N)C(N)=O  MIC (broth microdilution; DSM 30008; 18 h, 37 °C, 25% MHB2): 16 µg/mL
CC[C@H](C)[C@H](N)C(=O)N[C@@H](CCCNC(=N)N)C(=O)N[C@H](C(=O)N[C@@H](Cc1c[nH]c2ccccc12)C(=O)N[C@@H](Cc1ccccc1)C(=O)N[C@H](C(=O)N[C@@H](CCCCN)C(=O)N[C@H](C(=O)N[C@@H](CCCNC(=N)N)C(=O)N[C@@H](CCCCN)C(=O)N[C@@H](CCSC)C(=O)N[C@@H](CCCCN)C(=O)N[C@@H](C)C(=O)N[C@H](C(=O)N[C@@H](Cc1ccc(O)cc1)C(=O)N[C@@H](Cc1c[nH]cn1)C(=O)N[C@H](C(N)=O)[C@@H](C)O)[C@@H](C)CC)C(C)C)[C@@H](C)CC)C(C)C  MIC (broth dilution; ATCC 19606): < 3.1 µM
CCCCCCCC(=O)N[C@@H](CCN)C(=O)N[C@H](C(=O)N[C@@H](CCN)C(=O)N[C@H]1CCNC(=O)[C@H]([C@@H](C)O)NC(=O)[C@H](CCN)NC(=O)[C@H](CCN)NC(=O)[C@H](CC(C)C)NC(=O)[C@@H](Cc2ccc(Br)cc2)NC(=O)[C@H](CCN)NC1=O)[C@@H](C)O  MIC (broth microdilution; ATCC 19606, colistin-susceptible): < 0.125 µg/mL
CC[C@H](C)[C@H](NC(=O)[C@H](CCCCN)NC(=O)[C@@H](NC(=O)[C@@H](NC(=O)[C@H](CC(C)C)NC(=O)[C@H](CCCNC(=N)N)NC(=O)[C@@H](NC(=O)[C@H](CC(C)C)NC(=O)[C@H](CCCNC(=N)N)NC(=O)CNC(=O)[C@H](Cc1ccccc1)NC(=O)[C@@H](N)CCCNC(=N)N)[C@@H](C)CC)[C@@H](C)CC)C(C)C)C(=O)N[C@@H](C)C(=O)N[C@@H](CCCNC(=N)N)C(=O)N[C@@H](CCCNC(=N)N)C(=O)N[C@@H](C)C(=O)N[C@@H](Cc1c[nH]cn1)C(=O)N[C@@H](CCCNC(=N)N)C(=O)N[C@@H](C)C(=O)N[C@@H](CCCNC(=N)N)C(=O)N1CCC[C@H]1C(=O)N[C@@H](C)C(=O)N[C@H](C(=O)N[C@@H](CCCCN)C(=O)N[C@@H](C)C(=O)N[C@@H](C)C(=O)N[C@@H](CO)C(=O)N[C@@H](CC(N)=O)C(=O)N[C@H](C(=O)N[C@@H](C)C(=O)N[C@@H](CCC(=O)O)C(=O)N[C@@H](CC(C)C)C(=O)N[C@@H](C)C(=O)N[C@@H](Cc1c[nH]cn1)C(=O)NCC(=O)N[C@@H](CCC(=O)O)C(N)=O)C(C)C)C(C)C  MIC (bacterial growth, broth microdilution; cation-adjusted Mueller Hinton broth; 18 h, 37 °C): ≤ 0.062 µM
O=C(c1ccccc1O)c1[nH]c(Cl)c(Cl)c1-n1c(C(=O)c2ccccc2O)cc(Cl)c1Cl  MIC (microbial growth; ATCC19606): > 64 µM
CC[C@H](C)[C@H](NC(=O)[C@@H](CCCNC(=N)N)NC(=O)[C@H](CCCNC(=N)N)NC(=O)[C@H](CC(N)=O)NC(=O)[C@H](Cc1c[nH]c2ccccc12)NC(=O)[C@H](CCCNC(=N)N)NC(=O)[C@@H]1CCCN1C(=O)[C@H](CCCNC(=N)N)NC(=O)[C@@H]1CCCN1C(=O)[C@H](CC(C)C)NC(=O)[C@H](Cc1ccc(O)cc1)NC(=O)[C@@H]1CCCN1C(=O)[C@@H]1CCCN1C(=O)[C@H](CCCCN)NC(=O)[C@H](CC(=O)O)NC(=O)[C@@H](N)C(C)C)C(=O)N[C@@H](Cc1ccc(O)cc1)C(=O)N[C@@H](CC(N)=O)C(=O)N[C@H](CCCNC(=N)N)C(N)=O  MIC (broth microdilution; DSM 30008; 18 h, 37 °C, 25% MHB2): 32 µg/mL
CN[C@H](CC(C)C)C(=O)N[C@H]1C(=O)N[C@@H](CC(N)=O)C(=O)N[C@H]2C(=O)N[C@H]3C(=O)N[C@H](C(=O)N[C@H](C(=O)N[C@@H](CCCNC(=N)N)C(N)=O)c4cc(O)cc(O)c4-c4cc3ccc4O)[C@H](O)c3ccc(c(Cl)c3)Oc3cc2cc(c3O[C@@H]2O[C@H](CO)[C@@H](O)[C@H](O)[C@H]2O[C@H]2C[C@](C)(NCc3ccc(OCc4cn(CC(=O)N[C@H](C(=O)N[C@@H](CCN)C(=O)N[C@H]5CCNC(=O)[C@H]([C@@H](C)O)NC(=O)[C@H](CCN)NC(=O)[C@H](CCN)NC(=O)[C@H](CC(C)C)NC(=O)[C@@H](CC(C)C)NC(=O)[C@H](CCN)NC5=O)[C@@H](C)O)nn4)c(OC)c3)[C@H](O)[C@H](C)O2)Oc2ccc(cc2Cl)[C@H]1O  MIC (broth microdilution; BAA-747): 11 µM
CC[C@H](C)[C@H](NC(=O)[C@@H](CCCNC(=N)N)NC(=O)[C@H](CCCNC(=N)N)NC(=O)[C@@H]1CCCN1C(=O)[C@@H]1CCCN1C(=O)[C@H](CCCNC(=N)N)NC(=O)[C@H](Cc1c[nH]c2ccccc12)NC(=O)[C@H](CCCNC(=N)N)NC(=O)[C@@H]1CCCN1C(=O)[C@H](CC(C)C)NC(=O)[C@H](Cc1ccc(O)cc1)NC(=O)[C@@H]1CCCN1C(=O)[C@@H]1CCCN1C(=O)[C@H](CCCCN)NC(=O)[C@H](CC(=O)O)NC(=O)[C@@H](N)C(C)C)C(=O)N[C@@H](Cc1ccc(O)cc1)C(=O)N[C@@H](CC(N)=O)C(=O)N[C@H](CCCNC(=N)N)C(N)=O  MIC (broth microdilution; DSM 30008; 18 h, 37 °C, 25% MHB2): 16 µg/mL
CCCCCCCC(=O)N[C@@H](CCN)C(=O)N[C@H](C(=O)N[C@@H](CCN)C(=O)N[C@H]1CCNC(=O)[C@H]([C@@H](C)O)NC(=O)[C@H](CCN)NC(=O)[C@H](CCN)NC(=O)[C@H](Cc2ccccc2)NC(=O)[C@@H](CCCc2ccccc2)NC(=O)[C@H](CCN)NC1=O)[C@@H](C)O  MIC (broth microdilution; colistin-resistant isolates): 1 to 2 µg/mL
CC[C@H](C)[C@H](NC(=O)[C@@H](CCCNC(=N)N)NC(=O)[C@H](CCCNC(=N)N)NC(=O)[C@@H]1CCCN1C(=O)[C@@H]1CCCN1C(=O)[C@H](CCCNC(=N)N)NC(=O)[C@@H]1CCCN1C(=O)[C@H](CCCNC(=N)N)NC(=O)[C@@H]1CCCN1C(=O)[C@H](CC(C)C)NC(=O)[C@H](Cc1ccc(O)cc1)NC(=O)[C@@H]1CCCN1C(=O)[C@@H]1CCCN1C(=O)[C@H](CCCCN)NC(=O)[C@H](CC(=O)O)NC(=O)[C@@H](N)C(C)C)C(=O)N[C@@H](Cc1ccc(O)c([N+](=O)[O-])c1)C(=O)N[C@@H](CC(N)=O)C(=O)N[C@H](CCCNC(=N)N)C(N)=O  MIC (broth microdilution; DSM 30008; 18 h, 37 °C, 25% MHB2): 32 µg/mL
CCCCCCCCCCCCCCCCCCn1cc(CN(CCC(=O)NCCN(CCC(=O)NCCN(CCC(=O)NCCN(C)C)CCC(=O)NCCN(C)C)CCC(=O)NCCN(CCC(=O)NCCN(C)C)CCC(=O)NCCN(C)C)CCC(=O)NCCN(CCC(=O)NCCN(CCC(=O)NCCN(C)C)CCC(=O)NCCN(C)C)CCC(=O)NCCN(CCC(=O)NCCN(C)C)CCC(=O)NCCN(C)C)nn1  MIC (microbial growth, broth dilution; MDR, ATCCBAA1800; 18 h): 6 µg/mL
CC[C@H](C)[C@H](NC(=O)[C@@H](CCCNC(=N)N)NC(=O)[C@H](CCCNC(=N)N)NC(=O)[C@H](CC(=O)O)NC(=O)[C@H](Cc1c[nH]c2ccccc12)NC(=O)[C@H](CCCNC(=N)N)NC(=O)[C@@H]1CCCN1C(=O)[C@H](CCCNC(=N)N)NC(=O)[C@@H]1CCCN1C(=O)[C@H](CC(C)C)NC(=O)[C@H](Cc1ccc(O)cc1)NC(=O)[C@@H]1CCCN1C(=O)[C@@H]1CCCN1C(=O)[C@H](CCCCN)NC(=O)[C@H](CC(=O)O)NC(=O)[C@@H](N)C(C)C)C(=O)N[C@@H](Cc1ccc(O)cc1)C(=O)N[C@@H](CC(N)=O)C(=O)N[C@H](CCCNC(=N)N)C(N)=O  MIC (broth microdilution; DSM 30008; 18 h, 37 °C, 25% MHB2): 64 µg/mL
CCCCCCCC(=O)N[C@@H](CCN)C(=O)N[C@H](C(=O)N[C@@H](CCN)C(=O)N[C@H]1CCNC(=O)[C@H]([C@@H](C)O)NC(=O)[C@H](CCN)NC(=O)[C@H](CCN)NC(=O)[C@H](Cc2ccccc2)NC(=O)[C@@H](CCCCCC)NC(=O)[C@H](CCN)NC1=O)[C@@H](C)O  MIC (broth microdilution; ATCC 19606, colistin-susceptible): 0.25 to 0.5 µg/mL

Some of these lines once more:
CC[C@H](C)[C@H](NC(=O)[C@@H](CCCNC(=N)N)NC(=O)[C@H](CCCNC(=N)N)NC(=O)[C@H](CC(N)=O)NC(=O)[C@H](Cc1c[nH]c2ccccc12)NC(=O)[C@H](CCCNC(=N)N)NC(=O)[C@@H]1CCCN1C(=O)[C@H](CCCNC(=N)N)NC(=O)[C@@H]1CCCN1C(=O)[C@H](CC(C)C)NC(=O)[C@H](Cc1ccc(O)cc1)NC(=O)[C@@H]1CCCN1C(=O)[C@@H]1CCCN1C(=O)[C@H](CCCCN)NC(=O)[C@H](CC(=O)O)NC(=O)[C@@H](N)C(C)C)C(=O)N[C@@H](Cc1ccc(O)cc1)C(=O)N[C@@H](CC(N)=O)C(=O)N[C@H](CCCNC(=N)N)C(N)=O  MIC (broth microdilution; DSM 30008; 18 h, 37 °C, 25% MHB2): 32 µg/mL
CCCCCCCCCCCCCCCCCCn1cc(CN(CCC(=O)NCCN(CCC(=O)NCCN(CCC(=O)NCCN(C)C)CCC(=O)NCCN(C)C)CCC(=O)NCCN(CCC(=O)NCCN(C)C)CCC(=O)NCCN(C)C)CCC(=O)NCCN(CCC(=O)NCCN(CCC(=O)NCCN(C)C)CCC(=O)NCCN(C)C)CCC(=O)NCCN(CCC(=O)NCCN(C)C)CCC(=O)NCCN(C)C)nn1  MIC (microbial growth, broth dilution; MDR, ATCCBAA1800; 18 h): 6 µg/mL
